{"data": "Measured values pooled from the literature", "target": "5-hydroxytryptamine receptor 2A (HTR2A, Homo sapiens, UniProt P28223)", "note": "Compare with care: the assays were run in different laboratories. ± marks the error that the study gave.", "sequence of UniProt P28223 (whole entry, looked up)": "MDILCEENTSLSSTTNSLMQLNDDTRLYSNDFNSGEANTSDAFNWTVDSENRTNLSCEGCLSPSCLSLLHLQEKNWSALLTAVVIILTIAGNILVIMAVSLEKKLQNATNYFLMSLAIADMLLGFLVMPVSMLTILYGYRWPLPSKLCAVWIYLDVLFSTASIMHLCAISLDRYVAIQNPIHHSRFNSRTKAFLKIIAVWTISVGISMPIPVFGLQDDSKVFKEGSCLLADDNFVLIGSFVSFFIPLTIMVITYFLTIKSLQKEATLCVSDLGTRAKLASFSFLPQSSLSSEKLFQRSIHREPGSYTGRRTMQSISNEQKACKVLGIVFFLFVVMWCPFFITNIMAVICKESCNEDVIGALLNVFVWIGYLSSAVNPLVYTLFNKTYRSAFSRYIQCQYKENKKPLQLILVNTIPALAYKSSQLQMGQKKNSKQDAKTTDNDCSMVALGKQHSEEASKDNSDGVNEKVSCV"}
{"Structure (SMILES)": "C[C@@H]1Cc2ccccc2N1C(=O)NCCCCN(C)[C@@H]1Cc2cccc3[nH]c(=O)n(c23)C1", "test": "binding", "setting": "together with: [3H]5-HT", "measurement": "Hill slope", "result": "-0.71 ± 0.04"}
{"Structure (SMILES)": "O=C(c1ccc(F)cc1)C1CCN(CCn2c(=O)[nH]c3ccccc3c2=O)CC1", "setting": "10 µM", "measurement": "inhibition", "result": "99.6 ± 1.4%"}
{"Structure (SMILES)": "CN(C(=O)n1cnc(-c2ccc[n+]([O-])c2)c1)C1CCCCC1", "test": "receptor binding", "setting": "10 µM, subtype 5HT2A", "measurement": "inhibition", "result": "-0.79%"}
{"Structure (SMILES)": "Cc1ccnc(OC[C@H]2CN(CC(=O)N3CCc4ccccc43)CCO2)c1", "test": "radioligand binding", "setting": "concentration not given, together with: [3H]ketanserin", "measurement": "inhibition", "result": "-1.1%"}
{"Structure (SMILES)": "CCS(=O)(=O)c1nc(S(=O)(=O)c2ccccc2Cl)c(N2CCN(C)C(=O)[C@H]2C)s1", "setting": "10 µM", "measurement": "inhibition", "result": "24.1%"}
{"Structure (SMILES)": "Cc1ccnc(C)c1OC[C@H]1CN(CCN2CCc3ccccc32)CCO1", "test": "radioligand binding", "setting": "concentration not given, together with: [3H]ketanserin", "measurement": "inhibition", "result": "53.9%"}
{"Structure (SMILES)": "OCCCN1CC[C@@H]2C[C@H]1c1cc(-c3ccc(C(F)(F)F)cc3)ccc12", "test": "radioligand binding, PDSP competition binding", "setting": "10 µM", "measurement": "inhibition", "result": "< 50%"}
{"Structure (SMILES)": "Cc1ncccc1OC[C@H]1CN(CCN2CCc3ccccc32)CCO1", "test": "radioligand binding", "setting": "concentration not given, together with: [3H]ketanserin", "measurement": "inhibition", "result": "33.6%"}
{"Structure (SMILES)": "O=C(NO)c1ccc(CN2CCCCc3ccccc32)c(F)c1", "test": "radioligand binding, radioligand displacement", "setting": "10 µM, mean of replicates", "measurement": "inhibition", "result": "13.5%"}
{"note": "Repeated from above:"}
{"Structure (SMILES)": "CN(C(=O)n1cnc(-c2ccc[n+]([O-])c2)c1)C1CCCCC1", "test": "receptor binding", "setting": "10 µM, subtype 5HT2A", "measurement": "inhibition", "result": "-0.79%"}
